{"data": "Assay results pooled from the literature", "note": "Each line is one published result; not all experiments were run side by side. ± gives the spread as reported."}
{"Compound": "CC[C@H](C)C(=O)N1CCC(NC(=O)Nc2ccc(OC(F)(F)F)c(F)c2)CC1", "system": "healthy volunteers", "conditions": "oral, 24 mg single dose, 14 (unit not given)", "quantity": "subjects with any TEAE", "value": "66.7%"}
{"Compound": "COc1ccc(CNc2nc(N3CCC[C@H]3CO)ncc2C(=O)NN)cc1Cl", "target or system": "Salmonella typhimurium", "system": "TA1535", "conditions": "250 µg/plate, 48 h", "quantity": "revertant count", "value": "55 ± 2"}
{"Compound": "CN(C)C(CNC(=O)Nc1cc(C(F)(F)F)ccc1N1CCOCC1)c1ccncc1 (centres unmarked)", "system": "mouse, serum", "conditions": "intraperitoneal, 120 mg/kg single dose", "quantity": "serum creatinine", "value": "0.2 mg/dL"}
{"Compound": "N[C@]1(c2ccccc2Cl)CCC[C@H](O)C1=O", "system": "Wistar rat, plasma", "conditions": "oral, 20 mg/kg", "quantity": "AUC(0-inf)", "value": "13600 ± 1660 ng·h/mL"}
{"Compound": "C[C@@](O)(C(F)F)[C@H](NC(=O)c1ccc(C#CC#CC2CC2)cc1)C(=O)NO", "system": "CD-1 mouse", "conditions": "oral, 40 mg/kg, not fasted", "quantity": "terminal half-life", "value": "3 ± 0.3 h"}
{"Compound": "COc1ccc(CNc2nc(N3CCC[C@H]3CO)ncc2C(=O)NNC(=O)c2cnc(N3CCC[C@H]3CO)nc2NCc2ccc(OC)c(Cl)c2)cc1Cl", "target or system": "Salmonella typhimurium", "system": "TA98", "conditions": "1000 µg/plate, 48 h", "quantity": "revertant count", "value": "16 ± 3"}
{"Compound": "CSCC[C@@H]1NC(=O)[C@@H]2CSSC[C@H](NC(=O)[C@H](CO)NC(=O)[C@H](C)N)C(=O)N[C@@H](CCCNC(=N)N)C(=O)N[C@@H]([C@@H](C)O)C(=O)N3CCC[C@H]3C(=O)N[C@@H](CCCCN)C(=O)N[C@@H](CC(=O)O)C(=O)N[C@H]3CSSC[C@H](NC(=O)[C@H](CCCCN)NC(=O)[C@H](CCCNC(=N)N)NC(=O)[C@H](CC(N)=O)NC1=O)C(=O)N[C@@H](CCCCN)C(=O)N[C@H]1CSSC[C@H](NC(=O)[C@@H]4CCCN4C(=O)[C@H](CC(=O)O)NC(=O)[C@H](C)NC3=O)C(=O)N[C@@H](C)C(=O)N[C@@H](CCCCN)C(=O)N[C@@H](CCC(=O)O)C(=O)N[C@@H]([C@@H](C)O)C(=O)NCC(=O)N[C@@H](CSSC[C@@H](C(N)=O)NC(=O)[C@H](CCCNC(=N)N)NC(=O)[C@H](CC(N)=O)NC1=O)C(=O)N1CCC[C@H]1C(=O)N[C@@H](Cc1ccc(O)cc1)C(=O)NCC(=O)N[C@@H](CCCCN)C(=O)N2", "system": "DA rat, pristane-induced arthritis, serum", "conditions": "subcutaneous, 0.1 mg/kg every other day, 21 days", "quantity": "blood urea nitrogen", "value": "11.4 mg/dL"}
{"Compound": "CN[C@](C)(C[18F])C(=O)O", "target or system": "DU-145 tumour model", "system": "host not given, tumour", "conditions": "1 h, tumour-bearing", "quantity": "tracer uptake", "value": "4.1 %ID/g"}
{"Compound": "CN(C)CC1CCCCC1(O)c1cccc(O)c1 (centres unmarked)", "target or system": "Caco-2 TC7", "conditions": "100 µM, 3 h, pH 6.8 apical, 7.4 basolateral", "quantity": "efflux ratio", "value": 2.2}
{"Compound": "COc1cc(C(=O)NCCOCCOCCOCCNC(=O)c2ccc([18F])nc2)ccc1NC(=O)C1NC(CC(C)(C)C)C(C#N)(c2ccc(Cl)cc2F)C1c1cccc(Cl)c1F (centres unmarked)", "target or system": "SJSA-1 tumour model", "system": "host not given, lung", "conditions": "2 h, tumour-bearing", "quantity": "tracer uptake", "value": "0.49 %ID/g"}
{"Compound": "CCC(=O)N(C)c1ccc(Cl)c(Cl)c1", "target or system": "Salmonella typhimurium", "assay": "Ames test", "system": "TA98", "conditions": "5.00 mg/plate, without S9 activation", "quantity": "revertants", "value": "0 ± 0.6 revertants/plate"}
{"note": "Some of these lines once more:"}
{"Compound": "COc1cc(C(=O)NCCOCCOCCOCCNC(=O)c2ccc([18F])nc2)ccc1NC(=O)C1NC(CC(C)(C)C)C(C#N)(c2ccc(Cl)cc2F)C1c1cccc(Cl)c1F (centres unmarked)", "target or system": "SJSA-1 tumour model", "system": "host not given, lung", "conditions": "2 h, tumour-bearing", "quantity": "tracer uptake", "value": "0.49 %ID/g"}
